Experimental data of several laboratories.
Numbered parts are unrelated; each lists some results of a single study.

Study 1 — method: RNA Bind-n-Seq; molecule type: RNA; matrix: in vitro; tested at: not given; relative to: input RNA pool; direction: higher = stronger binding
Target: RING finger protein unkempt homolog, zinc fingers 1-6, GST-SBP tag (UNK, Homo sapiens, UniProt Q9C0B0, residues 30-357)
Sequence of UniProt Q9C0B0 (30-357, looked up): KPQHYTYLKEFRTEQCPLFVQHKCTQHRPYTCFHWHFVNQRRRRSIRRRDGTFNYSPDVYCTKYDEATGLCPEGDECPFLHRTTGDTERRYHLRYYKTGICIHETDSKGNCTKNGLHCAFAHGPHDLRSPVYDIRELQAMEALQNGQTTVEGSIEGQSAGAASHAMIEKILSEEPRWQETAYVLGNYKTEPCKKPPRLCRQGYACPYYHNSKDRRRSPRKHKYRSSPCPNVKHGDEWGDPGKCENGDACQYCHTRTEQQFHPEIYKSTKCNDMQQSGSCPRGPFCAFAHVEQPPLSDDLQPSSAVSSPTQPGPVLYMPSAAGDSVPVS
Setting: RNA with constant flanks, human and mouse sites, ends assumed
All sequences stand within: GGGAGUUCUACAGUCCGACGAUC … CAACAGAGGAUUGAGCAUCA
Oligonucleotide | bound/input enrichment
AUCAUUAACAGCUUGUUACAAGAAUGGAAAGGUCCACGAACAAAAGAUGAUCUUAGAGCAUAUUUUAUACUGUUACAGAAUCCUCAAUUUAAUAUCACAUCUACAUAUGUCAUCUAUGCU | 3.39 ratio
AGCAAAAGAGCCAAGCAGUAGCAAUGUUUGUUUUUUUUUUUUUUUGUAAAUGUAAAAAUAAUUAGCUCUAGACCUGUUUCCUUUGAUUUAAAAAUAAAGAAUGCCUCAGUGCUGCUCUCA | 1.25 ratio
GUGGGUCAGGACCCUGUCUUGAGACAGGUGGAAGGAAAAAAUCCAGUCACAAUAUUUUCUCUAGCAACUAAUGAGAUGUGGCGAUCAGGGGAUAGUGAAGUUUACCAACUGGGUGAUGUC | 0.881 ratio
UAACUCCCCCAUCCCACGAUUUAAAUAGGGCUCCUCGUGUACCAGUUCAAGCACUGCCCAUGGUUGUUCCACCUCAGGAGCCUGACAAACCACCUGCCAAUGUUGCCACCACUCUUCCCA | 0.176 ratio
UUCAUCUAUUUGUGUACAAAAUGAUGUCGUUUUGAGGGAAUUUAAGUAUUUAAAUUGCUUCAUAGUCUAAAUUAUUAAUUUUCUUAAUAAAAUAACUGUUUAAACAUUGAUUUGCAGUUA | 3.69 ratio
CGAAGUAAGAAAGCAAACCUAGGCAAGAAUGCAAGUGUGAAUGCGCACCAUGGACCAGCACUAGAAGCUGUGGAGACCACUGUGCCCAAGCAAGGACAAAACUUAUGGUUCCUGUGUGAC | 0.252 ratio
CCAUCCCUCAGUGACAGUAUGCCUUCUGUAGCAGAUUCUCACUCUAGUCAUUUUUCUGAAUUUAGUUGUUCUGACCUAGAAAGCAUGAAAACUUCUUGUAGUCAUGGUUCCAGUGAUUAU | 16.7 ratio
CUGUACUGUGGAAUAGCUUCUCCAGCAAUGAUUACUUCAGAGUUACCAGUGUUACAGGAUUCAACUAAUGAAACUACUGCCCACUCUGAUGCUGGCAGCGAACUUGAAGAAACAGAGGUC | 0.112 ratio
GAUGGGGACCAAAGGCAUGAGGCUAAGUCCCCGAGUCCCAAAGAAAGCAAGAAGAGGAAGUUGGAGGGGAACAGGCAGGAGCAGGUCCCAGGGGAGCCAGAUCCUCAGGGUGUCUCUGAG | 0.223 ratio
CUCUCCAACUGCAACCACACCUACUGUCUCAAGUGCAUUCGCAAGUGGAGGAGUGCUAAGCAAUUUGAGAGCAAGAUCAUAAAGUCCUGCCCAGAAUGCCGGAUCACAUCUAACUUUGUC | 0.0866 ratio
CUGCCCAAGAAGACCGAGAGCCACCACAAGGCCAAGGGCAAGUGAGGCCCCUACCGGUCGUUAGUGCGACUUUUACAGACACCAAAGGCUCUUUUCAGAGCCACCCACAACCUCAUUAGA | 0.745 ratio

Study 2 — method: protein binding microarray; molecule type: double-stranded DNA, one strand shown; matrix: in vitro; tested at: not given; relative to: not given; direction: higher = stronger binding
Target: Histone acetyltransferase KAT6A, winged helix 2, GST fusion (KAT6A, Homo sapiens, UniProt Q92794, residues 85-181)
Setting: 8-mer, flanks averaged, mean of 2 arrays, mostly near background
Residues (chain): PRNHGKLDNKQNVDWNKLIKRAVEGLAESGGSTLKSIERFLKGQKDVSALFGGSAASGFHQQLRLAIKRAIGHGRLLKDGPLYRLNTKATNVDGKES
Oligonucleotide | E-score
CCCTATTC | -0.223
AACGATCA | -0.0785
AAATCGAT | 0.0964
CAGTTTAG | -0.0644
ACATGTCG | -0.247
AAGTGCCC | -0.0207
GGTGTGGA | 0.114
TCGCTAAA | 0.12
AAGAGGCT | -0.148
ACCACATA | -0.0618
GCCGAAGA | 0.15
CACCTGAC | -0.152
CACAAGGA | 0.0673
GCGCTGAC | -0.0822
CGGGTTAG | -0.186
AAGTTATC | 0.0519
CTAAACAA | -0.157
GTCGGCGA | 0.196
AAGACATC | -0.16
TCCGTTAA | 0.0234
GGGAATTA | -0.0301
TGGTTTAA | 0.0622
AAACTATC | 0.0155

Study 3 — method: RNA Bind-n-Seq; molecule type: RNA; matrix: in vitro; tested at: 200 nM; setting: whole 134-nt RNA, ends assumed; added: 150 mM LiCl; relative to: input library; direction: higher = stronger binding; all molecules: 7-deaza-guanosine replaces G
Target: Fragile X messenger ribonucleoprotein 1, C-terminal low-complexity region (Fmr1, Mus musculus, UniProt P35922)
All sequences stand within: GGGAGUUCUACAGUCCGACGAUC … UGGAAUUCUCGGGUGUCAAGG
Oligonucleotide | log2 enrichment
GUCCUGUGCUACACAUCGUAUGUACCGAAUCGGGCCCCCGGGGCCCCCGGGGCCCCCGGAAAGUAUUAUGUUACGCCGUUCGGAUCUGCA | 0.455
UCAAGUCCUGUGCUACACAUCGUAUGUACCGAAUCGGGAAGGGGAAGGGGAAGGGAAAGUAUUAUGUUACGCCGUUCGGAUCUGCACUUC | -0.826
CAAGUCCUGUGCUACACAUCGUAUGUACCGAAUCGGGAGGGAGGGUUUUUUUGGGAAAGUAUUAUGUUACGCCGUUCGGAUCUGCACUUC | -0.567
UCAAGUCCUGUGCUACACAUCGUAUGUACCGAAUCGGGAAGGGGAAGGAAGGGGAAAGUAUUAUGUUACGCCGUUCGGAUCUGCACUUCC | -0.765
UGGCCCUGGUGGCAUGCGGGGAGGAAGAGGUGGCCUCAUGGAUCGUGGUGGUCCCUGUGGAAUGUUCAGAGGUGGCCGUGGUGGAGACAG | 0.0471
ACCAUGCAGGUGGGCAUCUUUGGGAAGUGGGGCAAGGGGGGGAUAGGGAGGGAGGUAACACUUUGGGAACAGGUGGUCCCAGGUCGUUUC | 1
UCAAGUCCUGUGCUACACAUCGUAUGUACCGAAUCGGGGCCGGGCCGGCCGGGGAAAGUAUUAUGUUACGCCGUUCGGAUCUGCACUUCC | 0.511
CACAGACAACACGCACCCACACAGACACAGAGGGAAGGGGUUGGGAUGGGGACAGGGUGCACAGCAAAGCGGGGUAGGACCCCAGCCCCU | 0.241
CUCAAGUCCUGUGCUACACAUCGUAUGUACCGAAUCGGGGAAGGAAGGGGAAGGAAAGUAUUAUGUUACGCCGUUCGGAUCUGCACUUCC | -0.862
GUCCUGUGCUACACAUCGUAUGUACCGAAUCGGGGAAAGGGGAAAGGGGUUUUUGGGGAAAGUAUUAUGUUACGCCGUUCGGAUCUGCAC | 0.379
UGGGAGGUGGAUUUUGUUUAUUUUUUCAGCUCAUUUCCAGGGGUGGGAAUUUUUUUUUAAUAUGUGUCAUGAAUAAAGUUGUUUUUGAAA | -0.163

Study 4 — method: protein-binding microarray; molecule type: double-stranded DNA, one strand shown; matrix: in vitro; tested at: 2540 nM top; setting: 60-bp whole probe; added: salmon DNA 0.4 mg/ml; relative to: random background probes; direction: higher = stronger binding; all sequences stand within: GCCTAGCAC … GTCTTGATTCGCTTGACGCTGCTG
Target: Interferon regulatory factor 3, full length, phosphomimetic (IRF3, Homo sapiens, UniProt Q14653, residues 1-427, S386D/S396D/S398D/S402D/T404D/S405D)
Construct (chain): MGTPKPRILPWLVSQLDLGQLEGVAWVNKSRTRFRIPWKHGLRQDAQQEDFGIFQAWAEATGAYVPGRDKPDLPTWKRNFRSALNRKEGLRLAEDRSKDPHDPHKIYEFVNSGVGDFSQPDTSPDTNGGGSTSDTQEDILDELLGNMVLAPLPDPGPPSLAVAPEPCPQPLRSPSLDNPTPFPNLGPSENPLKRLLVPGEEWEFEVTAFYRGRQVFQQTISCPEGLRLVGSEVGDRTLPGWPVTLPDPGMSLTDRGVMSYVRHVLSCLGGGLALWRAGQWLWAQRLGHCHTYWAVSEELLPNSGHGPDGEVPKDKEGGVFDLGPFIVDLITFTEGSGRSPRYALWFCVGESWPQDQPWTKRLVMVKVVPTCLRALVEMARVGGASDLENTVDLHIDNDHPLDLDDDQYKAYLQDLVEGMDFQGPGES
Oligonucleotide | fitted relative affinity [z-score]
CTTCCTCTTTCACTGGTCCTGTGCTAG | 2.54
GACGGTTTCCTTGCCCTGACGTGCTAG | 4.25
CCCCCTTTTATATTGTAAGCGTGCTAG | 2.06
TTATGTTCCCTTTTCCTTTAGTGCTAG | 6.85
TTCGATTTCAGTCTCGATTAGTGCTAG | 2.76
AACGAACTGAGACTGGAGACGTGCTAG | -0.245
GACGGTCTCGGACTGGGGGCGTGCTAG | 0.299
TTAGGTCTCCTTTTCCTGTAGTGCTAG | 4.58
TTAGGTTTCGTGTTTCGGTTAGTGCTA | 4.83
TCATCTCTGGCCCTCCTACTGTGCTAG | 0.45
GCGGGAGAAAGCAAGCCCAGGTGCTAG | -0.832
GACGGTATTGGGACTGGGGACGTGCTA | -0.288
CCAGGCTGAAAGACCTCTGAGTGCTAG | -0.718
TTAGGTTTCCTTCTCCTTTGGTGCTAG | 9.97
GACGGTTTCGACTTTAGGGACGTGCTA | 3.76
GACGATATCAGACTGCAGACGTGCTAG | 0.253
GCCCCTTTCCTTTGCCTCTGGTGCTAG | 3.73
CTCCCTTTCTCTCTGTGACAGTGCTAG | 3.37
ACTAATTTTCATTTTCCAAAGTGCTAG | 4.61
CTCCTTTTAATTTTTAACGAGTGCTAG | 2.47
TCAACTCTCTGCTTGTGACTGTGCTAG | 0.0926
GACGGTATAGACTATCGGGACGTGCTA | -0.248
ATTAGAGGATAACTTACAGAGTGCTAG | -0.0654

For quick reference, copied from above (study 4):
Oligonucleotide | fitted relative affinity [z-score]
CTCCTTTTAATTTTTAACGAGTGCTAG | 2.47
GACGGTATAGACTATCGGGACGTGCTA | -0.248
TTAGGTTTCCTTCTCCTTTGGTGCTAG | 9.97
CTCCCTTTCTCTCTGTGACAGTGCTAG | 3.37
GACGGTATTGGGACTGGGGACGTGCTA | -0.288
GACGATATCAGACTGCAGACGTGCTAG | 0.253
